Published values gathered from unrelated publications.
Compare with care: the assays were run in different laboratories.
uncharacterized protein: uncharacterized protein (Streptococcus mutans serotype c, UniProt Q8DS94)
rhlR: HTH-type quorum-sensing regulator RhlR (rhlR, Pseudomonas aeruginosa, UniProt P54292)
Chain of UniProt P54292 (whole entry, looked up): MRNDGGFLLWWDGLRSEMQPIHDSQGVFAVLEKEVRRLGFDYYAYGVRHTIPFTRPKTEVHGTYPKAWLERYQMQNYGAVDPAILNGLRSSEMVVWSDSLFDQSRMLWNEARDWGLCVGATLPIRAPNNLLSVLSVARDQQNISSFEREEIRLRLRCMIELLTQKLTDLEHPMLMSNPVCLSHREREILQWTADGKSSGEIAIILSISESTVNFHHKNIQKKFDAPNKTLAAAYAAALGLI
Chain of UniProt P50391 (whole entry, looked up): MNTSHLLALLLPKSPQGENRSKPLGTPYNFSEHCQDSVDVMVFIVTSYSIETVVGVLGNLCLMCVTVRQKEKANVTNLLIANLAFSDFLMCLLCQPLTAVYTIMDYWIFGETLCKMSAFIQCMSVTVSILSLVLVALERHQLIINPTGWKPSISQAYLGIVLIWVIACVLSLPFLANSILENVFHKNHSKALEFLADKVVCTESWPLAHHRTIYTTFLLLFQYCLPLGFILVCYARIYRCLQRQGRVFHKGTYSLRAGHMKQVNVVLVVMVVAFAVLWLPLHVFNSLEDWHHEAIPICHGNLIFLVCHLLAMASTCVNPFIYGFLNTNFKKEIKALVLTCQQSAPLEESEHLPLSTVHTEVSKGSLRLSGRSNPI
Chain of UniProt P67775 (whole entry, looked up): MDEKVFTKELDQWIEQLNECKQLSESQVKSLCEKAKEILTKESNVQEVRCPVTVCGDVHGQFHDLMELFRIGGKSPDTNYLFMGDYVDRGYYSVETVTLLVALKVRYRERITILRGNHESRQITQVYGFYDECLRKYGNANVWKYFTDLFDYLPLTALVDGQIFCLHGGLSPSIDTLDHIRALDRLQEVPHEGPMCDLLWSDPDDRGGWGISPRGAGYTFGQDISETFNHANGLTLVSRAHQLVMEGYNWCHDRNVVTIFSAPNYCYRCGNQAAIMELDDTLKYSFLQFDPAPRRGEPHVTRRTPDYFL
Chain of UniProt Q9VNB5 (whole entry, looked up): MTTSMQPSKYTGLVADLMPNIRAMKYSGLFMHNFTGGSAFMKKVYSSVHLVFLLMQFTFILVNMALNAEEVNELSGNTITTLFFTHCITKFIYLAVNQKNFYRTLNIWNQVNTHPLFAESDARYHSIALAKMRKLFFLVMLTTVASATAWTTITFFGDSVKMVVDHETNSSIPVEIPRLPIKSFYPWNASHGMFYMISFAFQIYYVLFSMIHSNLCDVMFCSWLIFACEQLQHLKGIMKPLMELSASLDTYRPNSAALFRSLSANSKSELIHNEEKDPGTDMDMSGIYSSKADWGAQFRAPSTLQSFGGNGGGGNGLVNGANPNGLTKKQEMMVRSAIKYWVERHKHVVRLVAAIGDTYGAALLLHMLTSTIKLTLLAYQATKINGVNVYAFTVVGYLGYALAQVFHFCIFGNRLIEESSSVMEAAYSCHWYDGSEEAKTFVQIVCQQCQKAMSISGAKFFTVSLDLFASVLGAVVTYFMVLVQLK
Chain of UniProt P28335 (whole entry, looked up): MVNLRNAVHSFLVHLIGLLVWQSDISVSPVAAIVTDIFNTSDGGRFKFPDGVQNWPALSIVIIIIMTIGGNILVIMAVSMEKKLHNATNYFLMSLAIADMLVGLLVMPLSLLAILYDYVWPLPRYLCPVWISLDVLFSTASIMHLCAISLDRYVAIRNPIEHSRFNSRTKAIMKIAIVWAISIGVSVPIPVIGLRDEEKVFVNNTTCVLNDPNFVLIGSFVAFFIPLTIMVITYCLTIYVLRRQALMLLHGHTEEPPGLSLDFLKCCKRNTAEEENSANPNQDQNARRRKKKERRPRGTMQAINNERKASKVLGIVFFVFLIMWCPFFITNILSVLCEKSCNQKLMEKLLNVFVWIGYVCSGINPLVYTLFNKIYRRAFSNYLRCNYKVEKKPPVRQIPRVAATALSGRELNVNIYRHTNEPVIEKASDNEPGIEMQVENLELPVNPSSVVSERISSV

| SMILES | target | test | test system | setting | EC50 [nM] |
| --- | --- | --- | --- | --- | --- |
| CC(C)C[C@H](NC(=O)[C@@H]1CCC(=O)N1)C(=O)N[C@H](C(=O)N[C@@H](Cc1ccccc1)C(=O)N[C@H](C(=O)N[C@@H](CO)C(=O)N[C@@H](CO)C(=O)N[C@@H](Cc1c[nH]c2ccccc12)C(=O)NCC(N)=O)[C@@H](C)O)[C@@H](C)O | Adipokinetic hormone receptor (Bombyx mori, UniProt Q8T6U9) | – | – | – | 6.4 |
| O=C(CSc1nnc(-c2cccnc2)n1C1CC1)N1CCc2cc(Br)ccc21 | Orco (Drosophila melanogaster, UniProt Q9VNB5) | calcium mobilization, agonist | HEK293 expressing Orco | – | 16700 |
| CC(C)C[C@H](NC(=O)[C@H](C)NC(=O)[C@H](CCC(N)=O)NC(=O)[C@@H](NC(=O)[C@H](Cc1ccccc1)NC(=O)[C@H](CO)NC(=O)[C@H](CCCNC(=N)N)NC(=O)[C@H](CC(N)=O)NC(=O)[C@H](Cc1ccccc1)NC(=O)[C@H](CC(C)C)NC(=O)[C@H](CCCNC(=N)N)NC(=O)[C@H](Cc1ccccc1)NC(=O)[C@H](Cc1ccccc1)NC(=O)[C@@H](NC(=O)[C@H](CO)NC(=O)[C@@H](CC(C)C)NC(=O)[C@H](CO)NC(=O)CNC(=O)[C@@H](N)CO)[C@@H](C)O)[C@@H](C)O)C(=O)NCC(=O)N[C@@H](CCCCN)C(=O)O | uncharacterized protein | – | Streptococcus mutans | – | 390 |
| O=C(NC1CCSC1=O)C1CCC1 (stereo not drawn) | rhlR | reporter gene, agonist | – | – | 1720 |
| CC(C)C[C@H](NC(=O)[C@H](CCCNC(=N)N)NC(=O)[C@H](Cc1ccccc1)NC(=O)[C@H](Cc1ccccc1)NC(=O)[C@@H](NC(=O)[C@H](CO)NC(=O)[C@@H](CC(C)C)NC(=O)[C@@H](CO)NC(=O)CNC(=O)[C@H](N)CO)[C@@H](C)O)C(=O)N[C@@H](Cc1ccccc1)C(=O)N[C@@H](CC(N)=O)C(=O)N[C@@H](CCCNC(=N)N)C(=O)N[C@@H](CO)C(=O)N[C@@H](Cc1ccccc1)C(=O)N[C@H](C(=O)N[C@@H](CCC(N)=O)C(=O)N[C@@H](C)C(=O)O)[C@@H](C)O | uncharacterized protein | – | Streptococcus mutans | – | 17 |
| NCC1CC1c1cc(O)ccc1OCC1CC1 (single isomer, unassigned; (-)) | 5-hydroxytryptamine receptor 2C (HTR2C, Homo sapiens, UniProt P28335) | calcium signal, agonist | – | – | 361 |
| CC[C@H](C)[C@H](NC(=O)[C@H](CC(N)=O)NC(=O)[C@H](Cc1ccccc1)NC(=O)[C@H](Cc1ccccc1)NC(=O)[C@@H](NC(=O)[C@H](CC(N)=O)NC(=O)[C@H](Cc1c[nH]cn1)NC(=O)[C@@H](NC(=O)[C@H](CCC(N)=O)NC(=O)[C@H](CCCNC(=N)N)NC(=O)[C@@H](NC(=O)[C@@H](N)CCC(=O)O)[C@@H](C)CC)[C@@H](C)O)[C@@H](C)CC)C(=O)N[C@@H](Cc1ccccc1)C(=O)N[C@@H](CCCCN)C(=O)N[C@@H](CCCNC(=N)N)C(=O)N[C@@H](CCCNC(=N)N)C(=O)O | histidine kinase ComD (Streptococcus pneumoniae serotype 2, UniProt A0A0H2ZM50) | reporter gene, agonist | Streptococcus pneumoniae, D39 comX::lacZ | 30 min, pH 7.3, 37 °C | > 10000 |
| CC(C)C[C@H](NC(=O)[C@H](C)NC(=O)[C@H](CCC(N)=O)NC(=O)[C@@H](NC(=O)[C@H](Cc1ccccc1)NC(=O)[C@H](CO)NC(=O)[C@H](CCCNC(=N)N)NC(=O)[C@H](CC(N)=O)NC(=O)[C@H](Cc1ccccc1)NC(=O)[C@H](CC(C)C)NC(=O)[C@H](CCCNC(=N)N)NC(=O)[C@H](Cc1ccccc1)NC(=O)[C@H](Cc1ccccc1)NC(=O)[C@@H](NC(=O)[C@H](CO)NC(=O)[C@H](CC(C)C)NC(=O)[C@@H](N)CO)[C@@H](C)O)[C@@H](C)O)C(=O)NCC(=O)N[C@@H](CCCCN)C(=O)O | uncharacterized protein | – | Streptococcus mutans | – | 120 |
| ClC/C=C/C[N+]12CN3CN(CN(C3)C1)C2 | Serine/threonine-protein phosphatase 2A catalytic subunit alpha isoform (PPP2CA, Homo sapiens, UniProt P67775) | enzyme activity, activator, absorbance | – | – | 14 |
| O=C(N[C@H]1CCOC1=O)C1CCCC1 | rhlR | reporter gene, agonist | Escherichia coli reporter strain | – | 2800 |
| CC1(C)C(C=C(Cl)Cl)C1C(=O)OCc1c(F)c(F)c(F)c(F)c1F (stereo not drawn) | Voltage-gated sodium channel (Musca domestica, UniProt Q25439) | cation influx, activator, membrane potential dye | HEK293 expressing Musca domestica VGSC | – | 736 |
| CC(=O)N[C@H](CCCNC(=N)N)C(=O)N[C@@H](Cc1ccc(O)cc1)C(=O)N[C@@H](CCCNC(=N)NC(=O)NCCCCN)C(=O)N[C@@H](CC(C)C)C(=O)N[C@@H](CCCNC(=N)N)C(=O)N[C@@H](Cc1ccc(O)cc1)C(N)=O | Neuropeptide Y receptor type 4 (NPY4R, Homo sapiens, UniProt P50391) | calcium signal, agonist | – | – | 756 |

For quick reference, copied from above:
| SMILES | target | test | test system | setting | EC50 [nM] |
| --- | --- | --- | --- | --- | --- |
| CC(C)C[C@H](NC(=O)[C@H](C)NC(=O)[C@H](CCC(N)=O)NC(=O)[C@@H](NC(=O)[C@H](Cc1ccccc1)NC(=O)[C@H](CO)NC(=O)[C@H](CCCNC(=N)N)NC(=O)[C@H](CC(N)=O)NC(=O)[C@H](Cc1ccccc1)NC(=O)[C@H](CC(C)C)NC(=O)[C@H](CCCNC(=N)N)NC(=O)[C@H](Cc1ccccc1)NC(=O)[C@H](Cc1ccccc1)NC(=O)[C@@H](NC(=O)[C@H](CO)NC(=O)[C@H](CC(C)C)NC(=O)[C@@H](N)CO)[C@@H](C)O)[C@@H](C)O)C(=O)NCC(=O)N[C@@H](CCCCN)C(=O)O | uncharacterized protein | – | Streptococcus mutans | – | 120 |
